Results of several laboratories.
Each numbered part is a random draw from the data of one study; scales do not carry over between parts. Values joined by “and” are separate records of one study, mostly repeats; a detail may differ.
Chain of UniProt Q13557 (whole entry, looked up): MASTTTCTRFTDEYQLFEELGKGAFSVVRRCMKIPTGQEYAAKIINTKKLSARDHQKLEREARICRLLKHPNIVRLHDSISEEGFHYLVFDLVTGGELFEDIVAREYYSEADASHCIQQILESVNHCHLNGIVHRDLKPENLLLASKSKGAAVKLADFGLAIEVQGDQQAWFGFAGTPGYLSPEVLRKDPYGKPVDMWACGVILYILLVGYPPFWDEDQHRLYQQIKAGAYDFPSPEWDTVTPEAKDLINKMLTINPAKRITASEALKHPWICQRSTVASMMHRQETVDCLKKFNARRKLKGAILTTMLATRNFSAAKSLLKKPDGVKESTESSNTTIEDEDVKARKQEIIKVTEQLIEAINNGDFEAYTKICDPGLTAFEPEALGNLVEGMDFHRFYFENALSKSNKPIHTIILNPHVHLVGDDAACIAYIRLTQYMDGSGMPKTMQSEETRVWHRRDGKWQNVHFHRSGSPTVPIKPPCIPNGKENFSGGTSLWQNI
Chain of UniProt Q00535 (whole entry, looked up): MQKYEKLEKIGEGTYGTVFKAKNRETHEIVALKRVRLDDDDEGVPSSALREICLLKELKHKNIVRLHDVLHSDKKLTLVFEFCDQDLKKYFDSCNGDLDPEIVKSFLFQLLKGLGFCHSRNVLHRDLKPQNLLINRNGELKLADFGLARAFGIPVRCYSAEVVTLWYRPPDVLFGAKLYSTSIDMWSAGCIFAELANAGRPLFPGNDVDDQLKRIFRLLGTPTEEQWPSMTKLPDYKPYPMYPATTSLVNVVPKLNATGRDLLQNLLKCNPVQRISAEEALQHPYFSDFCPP
Chain of UniProt Q99759 (whole entry, looked up): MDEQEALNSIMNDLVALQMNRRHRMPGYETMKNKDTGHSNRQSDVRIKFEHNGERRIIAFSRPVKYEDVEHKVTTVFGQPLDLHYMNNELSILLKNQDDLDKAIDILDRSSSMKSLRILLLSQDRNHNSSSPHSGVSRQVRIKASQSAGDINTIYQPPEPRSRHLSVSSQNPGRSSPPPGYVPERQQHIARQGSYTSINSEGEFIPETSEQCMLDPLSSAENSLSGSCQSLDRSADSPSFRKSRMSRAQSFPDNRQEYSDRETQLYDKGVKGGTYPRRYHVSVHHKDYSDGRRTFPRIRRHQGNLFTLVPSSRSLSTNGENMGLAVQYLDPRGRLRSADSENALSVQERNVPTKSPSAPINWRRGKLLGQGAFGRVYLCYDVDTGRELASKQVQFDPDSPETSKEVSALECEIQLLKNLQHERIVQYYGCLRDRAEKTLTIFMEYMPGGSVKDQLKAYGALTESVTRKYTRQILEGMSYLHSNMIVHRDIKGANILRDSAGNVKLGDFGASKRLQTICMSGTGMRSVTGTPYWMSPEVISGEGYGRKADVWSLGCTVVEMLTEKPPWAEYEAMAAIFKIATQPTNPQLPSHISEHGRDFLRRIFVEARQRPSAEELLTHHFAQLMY
Chain of UniProt P07948 (whole entry, looked up): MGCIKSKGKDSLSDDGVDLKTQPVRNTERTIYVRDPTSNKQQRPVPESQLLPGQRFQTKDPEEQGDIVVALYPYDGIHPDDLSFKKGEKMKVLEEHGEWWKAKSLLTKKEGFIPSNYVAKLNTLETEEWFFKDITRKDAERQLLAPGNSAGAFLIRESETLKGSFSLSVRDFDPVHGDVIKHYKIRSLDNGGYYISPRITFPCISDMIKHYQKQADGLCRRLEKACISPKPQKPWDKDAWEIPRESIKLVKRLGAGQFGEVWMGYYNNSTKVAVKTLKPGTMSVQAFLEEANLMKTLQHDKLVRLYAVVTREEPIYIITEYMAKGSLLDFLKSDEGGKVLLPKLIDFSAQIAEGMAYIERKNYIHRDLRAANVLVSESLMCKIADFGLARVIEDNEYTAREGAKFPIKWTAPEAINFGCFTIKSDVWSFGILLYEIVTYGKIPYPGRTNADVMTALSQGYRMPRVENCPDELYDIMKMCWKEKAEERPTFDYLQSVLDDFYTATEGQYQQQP
Chain of UniProt Q14164 (whole entry, looked up): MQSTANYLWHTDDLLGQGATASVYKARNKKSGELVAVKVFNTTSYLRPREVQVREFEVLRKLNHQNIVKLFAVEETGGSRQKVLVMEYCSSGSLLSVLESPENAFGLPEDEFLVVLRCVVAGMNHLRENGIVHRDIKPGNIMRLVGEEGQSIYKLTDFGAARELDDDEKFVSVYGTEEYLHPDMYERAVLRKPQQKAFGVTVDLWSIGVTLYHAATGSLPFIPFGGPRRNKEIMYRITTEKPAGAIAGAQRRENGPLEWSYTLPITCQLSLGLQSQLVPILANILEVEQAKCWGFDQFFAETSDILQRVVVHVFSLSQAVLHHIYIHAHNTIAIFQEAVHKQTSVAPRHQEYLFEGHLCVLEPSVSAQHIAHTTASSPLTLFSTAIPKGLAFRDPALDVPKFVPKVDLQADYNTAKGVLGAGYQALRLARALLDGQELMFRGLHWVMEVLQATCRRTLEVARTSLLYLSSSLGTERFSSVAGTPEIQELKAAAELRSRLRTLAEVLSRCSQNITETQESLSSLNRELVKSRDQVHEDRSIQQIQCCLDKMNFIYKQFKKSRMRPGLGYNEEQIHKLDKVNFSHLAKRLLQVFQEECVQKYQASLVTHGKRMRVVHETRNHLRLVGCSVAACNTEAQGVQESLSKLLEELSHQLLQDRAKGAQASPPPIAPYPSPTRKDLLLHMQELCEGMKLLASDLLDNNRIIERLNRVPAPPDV
Chain of UniProt P45984 (whole entry, looked up): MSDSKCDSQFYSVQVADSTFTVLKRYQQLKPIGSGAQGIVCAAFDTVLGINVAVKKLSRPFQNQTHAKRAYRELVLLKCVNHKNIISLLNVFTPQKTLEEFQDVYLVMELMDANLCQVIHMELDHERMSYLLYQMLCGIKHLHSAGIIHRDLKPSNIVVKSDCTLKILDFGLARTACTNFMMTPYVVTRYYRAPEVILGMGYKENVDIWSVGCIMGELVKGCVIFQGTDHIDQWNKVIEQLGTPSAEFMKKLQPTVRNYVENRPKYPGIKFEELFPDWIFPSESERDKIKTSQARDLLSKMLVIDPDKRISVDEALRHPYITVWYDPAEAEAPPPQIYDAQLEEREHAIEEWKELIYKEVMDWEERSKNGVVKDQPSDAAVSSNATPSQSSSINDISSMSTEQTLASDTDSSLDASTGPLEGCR
Chain of UniProt P11802 (whole entry, looked up): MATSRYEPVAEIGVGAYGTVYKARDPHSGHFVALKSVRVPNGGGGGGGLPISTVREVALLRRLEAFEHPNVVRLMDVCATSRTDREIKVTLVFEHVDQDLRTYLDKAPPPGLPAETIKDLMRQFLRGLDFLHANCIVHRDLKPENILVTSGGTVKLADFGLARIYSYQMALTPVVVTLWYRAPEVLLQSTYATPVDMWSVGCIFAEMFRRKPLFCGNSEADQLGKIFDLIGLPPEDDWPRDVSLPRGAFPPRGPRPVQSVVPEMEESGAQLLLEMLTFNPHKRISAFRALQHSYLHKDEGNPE
Chain of UniProt O95747 (whole entry, looked up): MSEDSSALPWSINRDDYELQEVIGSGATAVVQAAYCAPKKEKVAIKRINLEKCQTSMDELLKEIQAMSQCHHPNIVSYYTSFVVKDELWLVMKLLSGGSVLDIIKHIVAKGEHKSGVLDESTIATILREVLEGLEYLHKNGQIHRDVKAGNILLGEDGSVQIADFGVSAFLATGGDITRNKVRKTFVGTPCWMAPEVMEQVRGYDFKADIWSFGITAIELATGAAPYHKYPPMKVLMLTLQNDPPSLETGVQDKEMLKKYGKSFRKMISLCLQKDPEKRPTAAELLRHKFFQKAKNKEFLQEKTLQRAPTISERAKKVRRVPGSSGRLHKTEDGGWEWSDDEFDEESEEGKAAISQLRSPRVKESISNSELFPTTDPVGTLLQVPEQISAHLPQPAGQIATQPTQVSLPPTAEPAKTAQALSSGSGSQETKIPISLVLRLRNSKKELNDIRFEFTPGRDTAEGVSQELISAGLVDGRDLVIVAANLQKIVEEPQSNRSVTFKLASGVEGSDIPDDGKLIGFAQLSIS

Sample 1 — Structure (SMILES): Ic1cccc(CSc2nnc(-c3ccncc3)o2)c1; observed: enzyme activity; mode: inhibitor; tested at: 0.5 µM; baseline: control; quantity: remaining activity
Cyclin-dependent kinase 4, with cyclin D1 (CDK4, Homo sapiens, UniProt P11802): 96.3%
PRKACA (Homo sapiens, UniProt P17612): 94.6%
DAPK1 (Homo sapiens, UniProt P53355): 90.3%
cGMP-dependent protein kinase 1, isoform beta (PRKG1, Homo sapiens, UniProt Q13976): 95.5%
CAMKK2 (Homo sapiens, UniProt Q96RR4): 85.1%
STK39 (Homo sapiens, UniProt Q9UEW8): 101%
CHEK2 (Homo sapiens, UniProt O96017): 102%
Protein kinase C beta type, isoform beta-I (PRKCB, Homo sapiens, UniProt P05771): 97.5%
TGFBR1 (Homo sapiens, UniProt P36897): 94.4%
OXSR1 (Homo sapiens, UniProt O95747): 105%
MAPK9 (Homo sapiens, UniProt P45984): 108%
IKBKE (Homo sapiens, UniProt Q14164): 102%
GRK3 (Homo sapiens, UniProt P35626): 103%
TGFBR2 (Homo sapiens, UniProt P37173): 121%
CAMK2D (Homo sapiens, UniProt Q13557): 96.8%
Cyclin-dependent kinase 5, with p25 (CDK5, Homo sapiens, UniProt Q00535): 90.5%
IKBKB (Homo sapiens, UniProt O14920): 89.3%
NEK2 (Homo sapiens, UniProt P51955): 100%
STK10 (Homo sapiens, UniProt O94804): 93.8%
PRKCA (Homo sapiens, UniProt P17252): 123%
DAPK2 (Homo sapiens, UniProt Q9UIK4): 108%
Tyrosine-protein kinase Lyn, isoform B (LYN, Homo sapiens, UniProt P07948): 99.6%
MAP3K3 (Homo sapiens, UniProt Q99759): 89.6%

Sample 2 — SMILES: CCOc1ccc(Nc2c3c(nc4ccccc24)CCC3)cc1; organism: Leishmania donovani; strain: DD8; quantity: inhibition
parasite killing; intracellular amastigotes; 20 µM, 96 h: 100%
parasite viability, resazurin; promastigotes; 1.66 µM: 38% and 45% and 40% and 50% and 41% and 46%
parasite killing; intracellular amastigotes; 80 µM, 96 h: 100%
parasite killing; promastigotes; 0.66 µM, 96 h: 24% and 37% and 20%
parasite killing; promastigotes; 66.66 µM, 72 h: 100%
parasite killing; intracellular amastigotes; 20 µM, 48 h: 100%
parasite killing; promastigotes; 3.33 µM, 72 h: 61% and 74%
parasite killing; intracellular amastigotes; 2 µM, 96 h: 81% and 83% and 84%

Sample 3 — technique: von Frey test; quantity: paw withdrawal threshold
Compound: COc1cc(C(=O)OCCCN2CCCN(CCCOC(=O)c3cc(OC)c(OC)c(OC)c3)CC2)cc(OC)c1OC
mouse, CFA inflammatory pain; subcutaneous, 10 mg/kg, 1 h post-dose, third injection, day 5: 0.32 g and 0.23 g
mechanical pain; mouse, STZ diabetic neuropathy; intravenous, 30 mg/kg, 5 h post-dose, third injection: 0.29 g and 0.11 g and 0.13 g
mouse, CFA inflammatory pain; subcutaneous, 10 mg/kg, 5 h post-dose, second injection, day 3: 0.32 g and 0.23 g and 0.36 g and 0.13 g
mouse, CFA inflammatory pain; intravenous, dose not given, 1 h post-dose, first injection, day 1: 0.23 g and 0.44 g and 0.32 g
mouse, CFA inflammatory pain; intravenous, dose not given, 1 h post-dose, third injection, day 5: 0.32 g and 0.4 g and 0.29 g and 0.23 g
mechanical pain; mouse, STZ diabetic neuropathy; intravenous, 30 mg/kg, 5 h post-dose, first injection, day 8: 0.1 g and 0.03 g and 0.02 g and 0.4 g and 0.23 g
mouse, CFA inflammatory pain; subcutaneous, 10 mg/kg, 1 h post-dose, second injection, day 3: 0.32 g and 0.23 g and 0.29 g and 0.2 g

Sample 4 — observed: ligand displacement; tested at: 10 µM; quantity: inhibition
Target: D(3) dopamine receptor (DRD3, Homo sapiens, UniProt P35462)
Chain of UniProt P35462 (whole entry, looked up): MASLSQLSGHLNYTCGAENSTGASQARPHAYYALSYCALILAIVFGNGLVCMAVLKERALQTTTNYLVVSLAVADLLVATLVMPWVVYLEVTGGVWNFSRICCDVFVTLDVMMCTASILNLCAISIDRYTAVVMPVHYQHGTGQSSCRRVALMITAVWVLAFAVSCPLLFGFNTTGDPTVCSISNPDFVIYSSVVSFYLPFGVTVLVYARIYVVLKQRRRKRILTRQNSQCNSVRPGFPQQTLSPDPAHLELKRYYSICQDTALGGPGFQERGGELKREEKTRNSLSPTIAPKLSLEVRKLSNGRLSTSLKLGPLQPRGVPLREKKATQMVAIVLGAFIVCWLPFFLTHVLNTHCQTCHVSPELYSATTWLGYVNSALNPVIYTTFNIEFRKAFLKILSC
C[C@@H]1CN(c2cc(-c3n[nH]c4ccc(OC5(C)CC5)cc34)ncn2)C[C@H](C)O1: -0.66%
COc1cc(N[C@@H]2CCCC[C@]2(O)C(F)(F)F)ccc1F: -0.75%
CN(C)CC#Cc1ccc(OCCCc2sc(N3CCc4cccc(C(=O)Nc5nc6ccccc6s5)c4C3)nc2C(=O)O)c(F)c1: 2.01%
Nc1nc(NCc2ccccc2)nc(-c2ccccc2CO)n1: 18.9%
O=C(N[C@H]1CCCCC/C=C\C2C[C@@]2(C(=O)O)NC(=O)[C@@H]2C[C@@H](Oc3ccncc3)CN2C1=O)OC1CCCC1 (some centres unmarked): 12.7%
CC1CCN(c2ccnc(NCc3cn(C)cn3)n2)CC1: 47%
CCc1ccccc1C(=O)Nc1n[nH]c2c(C)c(F)c(C3C(C#N)=C(C)N(C)C(C)=C3C#N)cc12: 10.4%
CCOc1ccc(S(=O)(=O)Nc2ccc(Cl)cc2C#Cc2cnc(C(=O)O)cc2OC)c2ncccc12: -30.5%
CO[C@H]1CC[C@H](CNc2ccc(S(=O)(=O)NC(=O)c3ccc(N4CCN(CC5=C(c6ccc(Cl)cc6)CC(C)(C)CC5)CC4)cc3Oc3cnc4[nH]ccc4c3)cc2[N+](=O)[O-])CC1: -14.1%
CC(=O)Nc1ncc(CN2CCC[C@H](Cc3cc(C)nc(C)c3)C2)s1: 10.3%
COCCOc1nc(-c2ccc(Cl)nc2)nc2c1CN(C(=O)c1ncn3ccccc13)CC2: -6.15%
O=c1nc(-c2ccccn2)sc2ccccc12: 13.6%
CS(=O)(=O)N1CCCC(NC(=O)[C@H](CCC2CCCCC2)NC(=O)c2ccc(CNC(=O)c3cnc4ccccn34)cc2)C1 (some centres unmarked): 2.38%
COc1ccc2cc(OCC3(C(=O)O)CN(C(=O)c4ccc(F)cc4)C3)ccc2c1: 33%
C[C@H](c1ccnc(Nc2nc3ccc(-c4cc(N(C)C)ncn4)cc3[nH]2)c1)N1CCN(C(=O)CC(F)(F)F)CC1: 35.5%

For quick reference, copied from above (sample 1):
Cyclin-dependent kinase 5, with p25 (CDK5, Homo sapiens, UniProt Q00535): 90.5%
IKBKB (Homo sapiens, UniProt O14920): 89.3%
NEK2 (Homo sapiens, UniProt P51955): 100%
STK10 (Homo sapiens, UniProt O94804): 93.8%
PRKCA (Homo sapiens, UniProt P17252): 123%
